Measured values from different studies.
± marks the error that the study gave.
Chain of UniProt P41145 (whole entry, looked up): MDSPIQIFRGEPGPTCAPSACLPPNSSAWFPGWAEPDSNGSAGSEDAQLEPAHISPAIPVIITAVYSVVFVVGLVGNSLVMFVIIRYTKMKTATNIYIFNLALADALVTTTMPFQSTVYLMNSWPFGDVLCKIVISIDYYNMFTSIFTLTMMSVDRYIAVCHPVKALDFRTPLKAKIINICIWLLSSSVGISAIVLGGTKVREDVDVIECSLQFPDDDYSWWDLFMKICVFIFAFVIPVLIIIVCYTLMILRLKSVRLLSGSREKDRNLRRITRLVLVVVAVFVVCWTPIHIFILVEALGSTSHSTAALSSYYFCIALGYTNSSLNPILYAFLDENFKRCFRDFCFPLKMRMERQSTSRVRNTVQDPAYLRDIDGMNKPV
Chain of UniProt P0DMS8 (whole entry, looked up): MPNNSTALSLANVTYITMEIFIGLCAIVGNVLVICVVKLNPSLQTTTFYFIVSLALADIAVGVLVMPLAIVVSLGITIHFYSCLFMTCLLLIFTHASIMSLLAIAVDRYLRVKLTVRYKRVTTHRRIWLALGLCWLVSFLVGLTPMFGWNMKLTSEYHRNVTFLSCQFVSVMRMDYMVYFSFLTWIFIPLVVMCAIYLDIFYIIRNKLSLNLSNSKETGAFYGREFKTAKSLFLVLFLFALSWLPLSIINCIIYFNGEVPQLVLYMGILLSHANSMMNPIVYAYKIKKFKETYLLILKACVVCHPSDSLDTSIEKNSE
Chain of UniProt P35462 (whole entry, looked up): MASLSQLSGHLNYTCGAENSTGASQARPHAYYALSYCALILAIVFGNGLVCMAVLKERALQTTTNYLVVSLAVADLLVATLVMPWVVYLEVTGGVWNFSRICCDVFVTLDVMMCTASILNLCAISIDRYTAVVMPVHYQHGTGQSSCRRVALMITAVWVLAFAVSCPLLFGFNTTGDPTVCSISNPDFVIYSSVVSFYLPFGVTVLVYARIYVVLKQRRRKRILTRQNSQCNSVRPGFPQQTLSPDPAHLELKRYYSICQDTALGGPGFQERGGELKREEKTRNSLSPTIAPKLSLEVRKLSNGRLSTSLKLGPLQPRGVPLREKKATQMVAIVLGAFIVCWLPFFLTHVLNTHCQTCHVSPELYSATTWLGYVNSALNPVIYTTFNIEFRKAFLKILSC
Chain of UniProt P01317 (whole entry, looked up): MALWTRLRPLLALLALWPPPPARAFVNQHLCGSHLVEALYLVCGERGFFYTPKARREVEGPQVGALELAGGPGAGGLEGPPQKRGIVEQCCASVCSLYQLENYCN
Chain of UniProt Q9Y5N1 (whole entry, looked up): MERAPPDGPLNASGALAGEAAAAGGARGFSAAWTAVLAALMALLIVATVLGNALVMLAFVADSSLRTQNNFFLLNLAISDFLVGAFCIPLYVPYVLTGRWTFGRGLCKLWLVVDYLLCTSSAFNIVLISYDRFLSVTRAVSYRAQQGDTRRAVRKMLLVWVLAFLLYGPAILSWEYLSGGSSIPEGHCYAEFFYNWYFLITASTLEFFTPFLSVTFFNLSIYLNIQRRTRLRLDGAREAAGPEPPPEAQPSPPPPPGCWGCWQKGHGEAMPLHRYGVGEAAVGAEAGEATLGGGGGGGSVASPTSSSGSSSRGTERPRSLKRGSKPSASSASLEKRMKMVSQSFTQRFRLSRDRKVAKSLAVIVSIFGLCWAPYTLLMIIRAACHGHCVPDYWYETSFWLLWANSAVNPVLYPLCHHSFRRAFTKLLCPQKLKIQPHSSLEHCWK
Chain of UniProt Q01726 (whole entry, looked up): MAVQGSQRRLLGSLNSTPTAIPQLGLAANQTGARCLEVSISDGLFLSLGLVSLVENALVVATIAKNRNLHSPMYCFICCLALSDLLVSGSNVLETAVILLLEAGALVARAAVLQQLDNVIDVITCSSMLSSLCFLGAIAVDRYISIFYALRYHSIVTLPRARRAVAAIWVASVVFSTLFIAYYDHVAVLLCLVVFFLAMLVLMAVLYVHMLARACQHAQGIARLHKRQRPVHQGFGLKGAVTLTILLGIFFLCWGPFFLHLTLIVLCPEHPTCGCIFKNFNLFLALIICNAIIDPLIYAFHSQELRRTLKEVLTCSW
Chain of UniProt P14416 (whole entry, looked up): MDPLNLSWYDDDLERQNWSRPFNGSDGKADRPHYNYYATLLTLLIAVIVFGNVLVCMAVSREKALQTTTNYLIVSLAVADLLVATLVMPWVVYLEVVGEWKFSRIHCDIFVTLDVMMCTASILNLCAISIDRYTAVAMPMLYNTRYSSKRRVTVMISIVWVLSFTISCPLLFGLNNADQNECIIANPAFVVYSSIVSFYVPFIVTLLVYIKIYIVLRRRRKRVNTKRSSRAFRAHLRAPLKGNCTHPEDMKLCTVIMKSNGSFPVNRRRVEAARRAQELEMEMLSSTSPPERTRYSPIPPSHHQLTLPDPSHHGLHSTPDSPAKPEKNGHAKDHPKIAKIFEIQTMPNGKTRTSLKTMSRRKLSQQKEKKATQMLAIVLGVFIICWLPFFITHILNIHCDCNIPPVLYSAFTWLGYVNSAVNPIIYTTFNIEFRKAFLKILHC
Chain of UniProt O14757 (whole entry, looked up): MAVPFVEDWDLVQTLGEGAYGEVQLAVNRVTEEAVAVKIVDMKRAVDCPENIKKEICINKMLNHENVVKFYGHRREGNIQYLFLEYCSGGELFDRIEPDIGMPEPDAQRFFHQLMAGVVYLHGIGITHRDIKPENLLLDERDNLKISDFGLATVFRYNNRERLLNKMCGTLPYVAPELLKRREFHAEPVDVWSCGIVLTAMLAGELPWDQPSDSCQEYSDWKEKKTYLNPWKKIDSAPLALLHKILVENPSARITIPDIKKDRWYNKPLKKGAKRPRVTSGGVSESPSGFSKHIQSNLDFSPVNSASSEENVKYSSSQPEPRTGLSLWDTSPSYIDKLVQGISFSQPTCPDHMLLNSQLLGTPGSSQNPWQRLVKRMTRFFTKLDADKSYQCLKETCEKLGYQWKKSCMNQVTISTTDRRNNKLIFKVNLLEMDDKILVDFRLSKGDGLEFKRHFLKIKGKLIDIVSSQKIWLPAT
Chain of UniProt Q9UQB9 (whole entry, looked up): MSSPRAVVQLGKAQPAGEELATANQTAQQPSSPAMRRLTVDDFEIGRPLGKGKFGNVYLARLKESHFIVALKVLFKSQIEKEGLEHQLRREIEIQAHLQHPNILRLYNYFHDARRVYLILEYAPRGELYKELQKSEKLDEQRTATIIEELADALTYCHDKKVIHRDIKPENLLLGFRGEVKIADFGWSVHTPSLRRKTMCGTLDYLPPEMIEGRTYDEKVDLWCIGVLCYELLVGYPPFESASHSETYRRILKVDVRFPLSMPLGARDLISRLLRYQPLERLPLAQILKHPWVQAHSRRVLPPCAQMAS
Chain of UniProt P36544 (whole entry, looked up): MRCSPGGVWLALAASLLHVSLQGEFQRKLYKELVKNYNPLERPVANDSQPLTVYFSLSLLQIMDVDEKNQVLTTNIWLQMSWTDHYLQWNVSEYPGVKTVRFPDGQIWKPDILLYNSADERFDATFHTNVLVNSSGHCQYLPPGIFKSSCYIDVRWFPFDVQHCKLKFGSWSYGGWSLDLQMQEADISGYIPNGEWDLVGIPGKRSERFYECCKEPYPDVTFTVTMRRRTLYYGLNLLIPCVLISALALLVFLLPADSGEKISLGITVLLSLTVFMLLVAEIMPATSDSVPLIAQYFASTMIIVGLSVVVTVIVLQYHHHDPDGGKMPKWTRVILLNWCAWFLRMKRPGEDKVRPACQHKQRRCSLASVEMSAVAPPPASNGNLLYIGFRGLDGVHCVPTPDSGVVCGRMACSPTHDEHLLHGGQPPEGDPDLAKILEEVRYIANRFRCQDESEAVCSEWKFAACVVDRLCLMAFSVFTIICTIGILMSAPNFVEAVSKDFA
Chain of UniProt P28222 (whole entry, looked up): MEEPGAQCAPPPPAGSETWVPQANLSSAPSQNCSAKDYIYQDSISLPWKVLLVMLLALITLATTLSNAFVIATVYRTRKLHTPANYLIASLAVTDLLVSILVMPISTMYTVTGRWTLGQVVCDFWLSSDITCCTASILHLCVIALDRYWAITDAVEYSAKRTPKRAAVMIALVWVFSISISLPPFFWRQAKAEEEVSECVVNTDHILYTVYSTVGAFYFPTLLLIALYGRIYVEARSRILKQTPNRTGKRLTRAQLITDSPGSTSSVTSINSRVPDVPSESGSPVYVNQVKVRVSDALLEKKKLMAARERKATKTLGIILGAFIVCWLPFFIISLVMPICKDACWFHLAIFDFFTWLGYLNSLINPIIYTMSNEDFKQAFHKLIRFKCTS

| Molecule | target or system | test | system | setting | how to read | measurement | result |
| --- | --- | --- | --- | --- | --- | --- | --- |
| Aβ42, N-terminal Atto 488 | itself | single-molecule fluorescence burst analysis |  | 10 µM, pH 7.5, 37 °C, early aggregation, labeled peptide alone, before growth phase |  | mean oligomer size | 3.5 ± 0.24 N¯phot,mon |
| CCN(CCO)CCCOc1ccc2c(Nc3cc(CC(=O)Nc4cccc(F)c4)[nH]n3)ncnc2c1 | Aurora kinase C (AURKC, Homo sapiens, UniProt Q9UQB9) | degradation, degrader, Western blot, measured: AURKC | HPAF-II | 1 µM, 24 h |  | protein level | no effect |
| insulin | Insulin (INS, Bos taurus, UniProt P01317) | circular dichroism |  | 0 min |  | β-sheet content | 21.5% |
| CCCC[C@H]1NC(=O)[C@H](Cc2ccc(F)cc2)NC(=O)[C@H](CCCNC(=N)N)NC(=O)[C@@H](Cc2ccc3ccccc3c2)NC(=O)[C@H](CCCNC(=N)N)NC(=O)[C@H](CCCNC(=N)N)NC(=O)[C@H](CCC(N)=O)NC(=O)C[C@@H](CCc2ccccc2)NC(=O)[C@@H]2CCCCN2C(=O)C(=O)C(C)(C)COC1=O | TCPTP | fluorescence polarization |  | up to 20 µM |  | binding | no binding |
| hdhb E18D/G39D/R40A/R41A/T17A (Clostridium sardiniense) | NC(=O)c1ccc[n+]([C@@H]2O[C@H](COP(=O)(O)OP(=O)(O)OC[C@H]3O[C@@H](n4cnc5c(N)ncnc54)[C@H](O)[C@@H]3O)[C@@H](O)[C@H]2O)c1 | steady-state kinetics |  | pH 8, 25 °C, cofactor varied |  | kcat/Km | 68 M⁻¹ s⁻¹ |
| CN[C@@H]1C[C@H]2O[C@@](C)([C@@H]1OC)n1c3ccccc3c3c4c(c5c6ccccc6n2c5c31)C(=O)NC4 | CHEK1 (Homo sapiens, UniProt O14757) | KINOMEscan competition binding |  | 0.05 µM | relative to: control | remaining binding | 0% |
| dmhA Y300F (Campylobacter jejuni) | Nc1nc2c(ncn2[C@@H]2O[C@H](COP(=O)(O)OP(=O)(O)O[C@H]3O[C@H]([C@H](O)CO)[C@@H](O)[C@H](O)[C@@H]3O)[C@@H](O)[C@H]2O)c(=O)[nH]1 | steady-state kinetics |  | pH 7.5, 30 °C |  | kcat/Km | 5600 ± 600 M⁻¹ s⁻¹ |
| CCN1C[C@]2(COC(=O)c3ccccc3N3C(=O)C[C@H](C)C3=O)CC[C@H](OC)[C@@]34[C@@H]5C[C@H]6[C@H](OC)[C@@H]5[C@](O)(C[C@@H]6OC)[C@](O)([C@@H](OC)[C@H]23)[C@@H]14 | CHRNA7 (Homo sapiens, UniProt P36544) | ion current, antagonist, whole-cell patch clamp | HEK-293T expressing CHRNA7 | concentration not given |  | inhibition | 99.3% |
| hdhb G39D/R40L/R41N/T17A (Clostridium sardiniense) | NC(=O)c1ccc[n+]([C@@H]2O[C@H](COP(=O)(O)OP(=O)(O)OC[C@H]3O[C@@H](n4cnc5c(N)ncnc54)[C@H](O)[C@@H]3O)[C@@H](O)[C@H]2O)c1 | steady-state kinetics |  | pH 8, 25 °C, cofactor varied |  | kcat/Km | 266 M⁻¹ s⁻¹ |
| C[C@@H](N)Cc1c[nH]cn1.Cl.Cl | HRH3 (Homo sapiens, UniProt Q9Y5N1) | radioligand binding |  | concentration not given, off-target panel |  | inhibition | 100% |
| dmhA K162M (Campylobacter jejuni) | Nc1nc2c(ncn2[C@@H]2O[C@H](COP(=O)(O)OP(=O)(O)O[C@H]3O[C@H]([C@H](O)CO)[C@@H](O)[C@H](O)[C@@H]3O)[C@@H](O)[C@H]2O)c(=O)[nH]1 | steady-state kinetics |  | pH 7.5, 30 °C |  | kcat/Km | 36 ± 1 M⁻¹ s⁻¹ |
| Br.CCCN(CCC)C1CCc2ccc(O)cc2C1 (racemic) | DRD3 (Homo sapiens, UniProt P35462) | radioligand binding |  | concentration not given, off-target panel |  | inhibition | 98.4% |
| CCCN(CCC)C1CCc2ccc(O)cc2C1 (centres unmarked) | DRD2 (Homo sapiens, UniProt P14416) | binding, agonist, radioligand binding |  |  |  | Hill coefficient | 0.6 |
| O=C(N[C@H](Cc1ccc(Cl)cc1)C(=O)N1CCC(Cn2cncn2)(C2CCCCC2)CC1)[C@H]1Cc2ccccc2CN1 | MC1R (Homo sapiens, UniProt Q01726) | cAMP production, agonist | A-375 |  | relative to: MT-II | efficacy | 49 ± 4% |
| CNC(=O)[C@H]1O[C@@H](n2cnc3c(NCc4cccc(I)c4)nc(Cl)nc32)[C@H](O)[C@@H]1O | ADORA3 (Homo sapiens, UniProt P0DMS8) | radioligand displacement | CHO membranes | added: [3H]PSB-11, 1 mM GTP |  | Hill slope | -1.1 ± 0.1 |
| NCCc1c[nH]c2ccc(O)cc12 | HTR1B (Homo sapiens, UniProt P28222) | binding, antagonist, radioligand binding |  |  |  | Hill coefficient | 0.4 |
| Oc1ccc2c3c1O[C@H]1c4[nH]c5c(c4C[C@@]4(O)[C@@H](C2)N(CC2CC2)CC[C@]314)C[C@@]1(O)[C@H]2Cc3ccc(O)c4c3[C@@]1(CCN2CC1CC1)[C@H]5O4 | OPRK1 (Homo sapiens, UniProt P41145) |  |  | added: 0 mM sodium |  | Emax | 28.1 ± 4.62% |

Excerpt of the above:
| Molecule | target or system | test | system | setting | how to read | measurement | result |
| --- | --- | --- | --- | --- | --- | --- | --- |
| hdhb G39D/R40L/R41N/T17A (Clostridium sardiniense) | NC(=O)c1ccc[n+]([C@@H]2O[C@H](COP(=O)(O)OP(=O)(O)OC[C@H]3O[C@@H](n4cnc5c(N)ncnc54)[C@H](O)[C@@H]3O)[C@@H](O)[C@H]2O)c1 | steady-state kinetics |  | pH 8, 25 °C, cofactor varied |  | kcat/Km | 266 M⁻¹ s⁻¹ |
| CCCC[C@H]1NC(=O)[C@H](Cc2ccc(F)cc2)NC(=O)[C@H](CCCNC(=N)N)NC(=O)[C@@H](Cc2ccc3ccccc3c2)NC(=O)[C@H](CCCNC(=N)N)NC(=O)[C@H](CCCNC(=N)N)NC(=O)[C@H](CCC(N)=O)NC(=O)C[C@@H](CCc2ccccc2)NC(=O)[C@@H]2CCCCN2C(=O)C(=O)C(C)(C)COC1=O | TCPTP | fluorescence polarization |  | up to 20 µM |  | binding | no binding |
| dmhA Y300F (Campylobacter jejuni) | Nc1nc2c(ncn2[C@@H]2O[C@H](COP(=O)(O)OP(=O)(O)O[C@H]3O[C@H]([C@H](O)CO)[C@@H](O)[C@H](O)[C@@H]3O)[C@@H](O)[C@H]2O)c(=O)[nH]1 | steady-state kinetics |  | pH 7.5, 30 °C |  | kcat/Km | 5600 ± 600 M⁻¹ s⁻¹ |
